Results from different studies.
A part holds a random share of what one study measured. Substitutions count along the parent as printed.

Series 1 — technique: RNA Bind-n-Seq; molecule type: RNA; sample: in vitro; tested at: 200 nM; setting: whole 134-nt RNA, ends assumed; added: 150 mM LiCl; relative to: input library; direction: higher = stronger binding; all molecules: 7-deaza-guanosine replaces G
Target: Fragile X messenger ribonucleoprotein 1, C-terminal low-complexity region (Fmr1, Mus musculus, UniProt P35922)
With `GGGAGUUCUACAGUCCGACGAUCUCAAGUCCUGUGCUACACAUCGUAUGUACCGAAUCGGGAAGGAAGGGGAAGGGGAAAGUAUUAUGUUACGCCGUUCGGAUCUGCACUUCCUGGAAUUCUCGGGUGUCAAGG` the log2 enrichment was -0.566.
`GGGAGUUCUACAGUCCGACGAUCAGUCCUGUGCUACACAUCGUAUGUACCGAAUCGGGUUUUUGGGUGGGUUUUUUUGGGAAAGUAUUAUGUUACGCCGUUCGGAUCUGCACUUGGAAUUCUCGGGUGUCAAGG` gave a log2 enrichment of -1.72.
For `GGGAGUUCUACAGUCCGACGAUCUAACUUUAGAGGAGGAUCUGAUGGAUAUGGCAGUGGACGUGGAUUUGGGGAUGGCUAAAAUGGGUAUGGAGGAGGACCUGGAGGUGGCAAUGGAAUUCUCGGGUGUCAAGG`, the log2 enrichment was 0.667.
The log2 enrichment of `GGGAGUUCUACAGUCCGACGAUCAGUCCUGUGCUACACAUCGUAUGUACCGAAUCGGGGUGGGGAAAGGGGUUUUUGGGGAAAGUAUUAUGUUACGCCGUUCGGAUCUGCACUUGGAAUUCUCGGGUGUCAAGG` is reported as -0.926.
The log2 enrichment of `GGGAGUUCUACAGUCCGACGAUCUCAAGUCCUGUGCUACACAUCGUAUGUACCGAAUCGGGGUUGGGGUUGGUUGGGAAAGUAUUAUGUUACGCCGUUCGGAUCUGCACUUCCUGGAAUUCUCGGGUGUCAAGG` is reported as -0.52.
The log2 enrichment of `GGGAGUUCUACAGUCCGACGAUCUCAAGUCCUGUGCUACACAUCGUAUGUACCGAAUCGGAAAGGGAAAGGAAAGGGGAAAGUAUUAUGUUACGCCGUUCGGAUCUGCACUUCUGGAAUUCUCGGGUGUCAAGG` is reported as -0.885.
For `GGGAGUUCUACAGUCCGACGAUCCACAGACAACACGCACCCACACAGACACAGAGGGAAGGGGUUGGGAUGGGGACAAAAUGCACAGCAGGGCGGGGUAGGACCCCAGCCCCUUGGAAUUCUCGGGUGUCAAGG`, the log2 enrichment was -0.121.
`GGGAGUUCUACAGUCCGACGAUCGUCCUGUGCUACACAUCGUAUGUACCGAAUCGGGUUUUUUGGUUUUUUGGUUUUUUGGGAAAGUAUUAUGUUACGCCGUUCGGAUCUGCAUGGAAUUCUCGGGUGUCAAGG` has a log2 enrichment of -1.43.
For `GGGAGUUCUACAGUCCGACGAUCCUCAAGUCCUGUGCUACACAUCGUAUGUACCGAAUCGGGGUGGGGUGGGGUGGGAAAGUAUUAUGUUACGCCGUUCGGAUCUGCACUUCCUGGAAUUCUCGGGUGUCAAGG`, the log2 enrichment was -0.83.
With `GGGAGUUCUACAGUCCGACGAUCUCAAGUCCUGUGCUACACAUCGUAUGUACCGAAUCGGAAAGGGGAAAGGAAAGGAAAGUAUUAUGUUACGCCGUUCGGAUCUGCACUUCCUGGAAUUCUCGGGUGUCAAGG` the log2 enrichment was -0.778.
`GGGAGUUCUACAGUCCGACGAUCCUCAAGUCCUGUGCUACACAUCGUAUGUACCGAAUCGGUUUUUGGAGGUUUGGAAAGUAUUAUGUUACGCCGUUCGGAUCUGCACUUCCAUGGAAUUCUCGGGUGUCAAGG` has a log2 enrichment of -0.6.

Series 2 — technique: DHFR PCA, deep sequencing; sample: yeast; added: (+)-ABA 200 µM; relative to: wild-type fitted maximum; direction: higher = stronger binding
Target: ABI1, truncated, D143A, DHFR fusion (Arabidopsis thaliana)
Setting: methotrexate growth selection, single substitutions
Starting sequence: PYL1, truncated, DHFR fusion (Arabidopsis thaliana); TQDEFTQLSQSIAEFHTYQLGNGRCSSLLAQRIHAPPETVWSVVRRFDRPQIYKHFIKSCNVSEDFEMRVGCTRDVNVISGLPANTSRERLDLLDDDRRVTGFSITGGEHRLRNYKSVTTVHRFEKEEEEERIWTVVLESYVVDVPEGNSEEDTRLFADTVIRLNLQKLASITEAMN
`Y18I`: “relative binding score” 84.4%.
For `E147T`, “relative binding score” read 92.2%.
For `R132Y`, “relative binding score” read 95.4%.
For `P37H`, “relative binding score” read 68.9%.
`I79T`: “relative binding score” 97.8%.
`Q31T` — result for “relative binding score”: 70%.
Under “relative binding score”, `M68T` is recorded as 95.4%.
For `S80M`, “relative binding score” read 20.6%.
Under “relative binding score”, `S150R` is recorded as 72.9%.

Series 3 — target: CCNA1, cyclin fold, Cln2 fusion (human); technique: yeast growth competition, sequencing; sample: yeast; setting: strong parent motif; relative to: not given; direction: higher = stronger binding
Starting sequence: E2F1 docking peptide (human); PPVKRRLDFETDH; partner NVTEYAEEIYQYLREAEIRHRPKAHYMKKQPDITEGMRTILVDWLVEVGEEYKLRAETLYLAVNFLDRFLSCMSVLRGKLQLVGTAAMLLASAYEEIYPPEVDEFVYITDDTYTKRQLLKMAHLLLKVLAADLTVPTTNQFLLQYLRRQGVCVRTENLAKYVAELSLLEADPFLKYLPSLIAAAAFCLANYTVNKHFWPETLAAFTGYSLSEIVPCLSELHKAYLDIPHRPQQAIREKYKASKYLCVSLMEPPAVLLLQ
`K4M` — result for “normalised enrichment score”: 1.17.
Under “normalised enrichment score”, `V3I` is recorded as 1.19.
Under “normalised enrichment score”, `T11C` is recorded as 1.72.
`D12L`: “normalised enrichment score” 1.62.
`P2C`: “normalised enrichment score” 1.99.
Under “normalised enrichment score”, `D8T` is recorded as 1.7.
`D8V` — result for “normalised enrichment score”: 1.43.
Under “normalised enrichment score”, `P2M` is recorded as 1.85.
For `E10P`, “normalised enrichment score” read 1.3.
`T11D`: “normalised enrichment score” 1.83.
`L7P` — result for “normalised enrichment score”: -0.0909.
For `L7F`, “normalised enrichment score” read -0.0379.
For `P2T`, “normalised enrichment score” read 1.77.
For `E10W`, “normalised enrichment score” read 1.15.
`T11L`: “normalised enrichment score” 1.51.
Under “normalised enrichment score”, `E10I` is recorded as 1.42.
For `D12C`, “normalised enrichment score” read 1.84.

Series 4 — technique: RNA Bind-n-Seq; molecule type: RNA; sample: in vitro; tested at: not given; setting: RNA with constant flanks, ends assumed; relative to: input RNA pool; direction: higher = stronger binding
Target: RING finger protein unkempt homolog, zinc fingers 1-6, GST-SBP tag (UNK, Homo sapiens, UniProt Q9C0B0, residues 30-357)
Residues (chain): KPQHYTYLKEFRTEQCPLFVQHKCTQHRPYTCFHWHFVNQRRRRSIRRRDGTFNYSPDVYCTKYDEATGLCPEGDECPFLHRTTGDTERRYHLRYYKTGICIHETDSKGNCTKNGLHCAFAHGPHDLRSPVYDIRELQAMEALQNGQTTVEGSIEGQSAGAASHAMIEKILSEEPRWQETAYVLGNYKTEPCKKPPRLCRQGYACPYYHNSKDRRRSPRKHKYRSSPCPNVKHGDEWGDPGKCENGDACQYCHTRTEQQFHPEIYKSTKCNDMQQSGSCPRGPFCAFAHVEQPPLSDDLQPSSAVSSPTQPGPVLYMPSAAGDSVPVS
`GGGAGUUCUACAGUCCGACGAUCGUGGCAGACGCUGUCACUUACCAGCUUGGUUUCCACAGUAUUGAACUGAACGAGCCUCCACCCGUCCACACAGCCGCCAGUCUCUUUAAGGAGAUGUGUUACCGGUACAGAGAAGAUCUGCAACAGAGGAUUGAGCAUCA` gave a bound/input enrichment of 0.123 ratio.
`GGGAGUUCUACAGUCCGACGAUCUUUCAUCUUCUGGAGUUAGAAAAGGUCCACGAACUAUGUGAUAACUUCUGCCACCGGUACAUCCGCUGUUUGAAGGGAAAAAUGCCCAUUGACCUCGUGAUUGAUGAGAGAGAUGGAAGCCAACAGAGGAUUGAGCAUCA` has a bound/input enrichment of 0.118 ratio.
`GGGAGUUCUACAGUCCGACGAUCCUCACAAACAGCCAUUUGGAAAAAAAGAAGUGUGAUGAGUAUAUUCCAGGUACAACCUCCUCCGGCAUGUCUGUUUUUAACCUAAGCAACGCCAUUAUGGGCAGUGGGAUUUUGGGACUCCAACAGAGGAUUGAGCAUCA` gave a bound/input enrichment of 0.361 ratio.
`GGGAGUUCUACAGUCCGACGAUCCUUUGAGGUAAGAAAAAUGCAACCUGGACUGAUGGAUGUGUGACCCCUUGUCACCAAUGGACCCGCCUGUGACAGCCACAUCUCCAGCAUCACAACGCAGGGUCACUGCCCCAUGGUUCUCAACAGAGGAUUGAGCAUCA` has a bound/input enrichment of 0.0961 ratio.
`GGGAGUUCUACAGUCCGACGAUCAAAGAGAAAGAUGAAAUGGUAGAGCAAGAGUUUAACCGGUUGCUAGAAGCUACAUCUUACCUCCGUCAUCAACUAGACUUCAAUGUCCUCAAUAAUAAGCCUGUGUCCCUUGGCCAGGCACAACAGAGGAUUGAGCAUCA` gave a bound/input enrichment of 0.192 ratio.
For `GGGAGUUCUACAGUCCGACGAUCUUGUAUUUUCUAUCCAAAGAAAUAUAUGUGAUUACCCCAGAGACCUUCUCUACCAUAUCAGCCGCCGGGUUGAUAGUCUAUGUGAUUAAGAAAUAUGGCGCCUCUUUUGGAGAAUUUAUUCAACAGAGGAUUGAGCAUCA`, the bound/input enrichment was 0.876 ratio.
For `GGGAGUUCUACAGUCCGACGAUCUGCCUGGCGCAGGUGUUGCAGAAGGAUGUGGGGAAACGAUUGCAGGUUGGCCAAGAACUGACCGACUAUUUCUCAGACAAACAGAAGUCUGCUGACCUUGAGCAUGACCAGACCAUGUUACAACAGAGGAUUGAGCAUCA`, the bound/input enrichment was 0.116 ratio.

Some of these lines once more (series 2):
For `P37H`, “relative binding score” read 68.9%.
`I79T`: “relative binding score” 97.8%.
`Q31T` — result for “relative binding score”: 70%.
Under “relative binding score”, `M68T` is recorded as 95.4%.
For `S80M`, “relative binding score” read 20.6%.
Under “relative binding score”, `S150R` is recorded as 72.9%.
